Results pooled from the literature.
Protocols differ between the studies behind these lines. “And” joins repeats or separate records; there may be more than shown. Numbers after ± are the reported error.
Organism: HIV-1

For `c1nc2c(NCc3ccc(CNCCCNC4CCCCC4)cc3)nc(N3CCNCC3)nc2[nH]1`, the EC50 was 2 ± 0.1 nM (viral replication, luciferase reporter; TZM-bl, IIIB).
The EC50 of `COc1cc(NC(C)CCCNC(=O)c2ccccc2N)c2ncccc2c1` (centres unmarked) is reported as 9300 ± 500 nM (cytopathic effect; MT4, NL4.3; 5 days).
The EC50 of `Cc1cn([C@H]2C[C@H](N=[N+]=[N-])[C@@H](COC(=O)Cn3c(=O)ccn(CCCOc4ccc(Br)cc4)c3=O)O2)c(=O)[nH]c1=O` is reported as 1960 ± 780 nM (viral replication, item: p24gag; MT4, Lai.04; 3 days).
`COc1nc(NCCNc2nc(Nc3ccc(C#N)c(OCC=C(C)C)c3)nc(OC)n2)nc(Nc2ccc(C#N)c(OCC=C(C)C)c2)n1` gave an EC50 of greater than 6000 nM (protection from viral cytopathicity, MTT; MT-2, IIIB).
With `Cc1cn([C@H]2C[C@H](N=[N+]=[N-])[C@@H](CO)O2)c(=O)[nH]c1=O` the EC50 was 4.4 nM (viral replication; PBMC).
For `Cc1cc(C)cc(S(=O)(=O)c2c(C(=O)NCCCNS(=O)(=O)c3cccc(F)c3)[nH]c3ccc(Cl)cc23)c1`, the EC50 was 35 ± 12 nM (viral replication; MT-4, IIIB).
For `c1cc(CNCCCNC2CCCCC2)nc(CNc2nc(N3CCNCC3)nc3[nH]cnc23)c1`, the EC50 was 2.5 ± 0.1 nM (viral replication, luciferase reporter; TZM-bl, IIIB).
With `Cc1cc(C)cc(S(=O)(=O)c2c(C(=O)NCCCCNS(=O)(=O)c3ccc(Br)cc3)[nH]c3ccc(Cl)cc23)c1` the EC50 was 77 ± 31 nM (viral replication; MT-4, IIIB).
The EC50 of `COc1cc2nc(NCc3ccc(CNCCCN4CCCCC4)cc3)nc(NC3CCNCC3)c2cc1OC` is reported as 26.2 ± 4.4 nM (viral replication, luciferase reporter; TZM-bl, IIIB).
With `Cc1cn([C@H]2C[C@H](N=[N+]=[N-])[C@@H](COC(=O)Cn3c(=O)ccn(CCCCCCCCOc4ccc(Br)cc4)c3=O)O2)c(=O)[nH]c1=O` the EC50 was 230 ± 110 nM (viral replication, item: p24gag; MT4, Lai.04; 3 days).
With `O=C(O)c1ccccc1-n1c(-c2ccccc2)nc2ccccc2c1=O` the EC50 was greater than 125 µg/mL (cytopathic effect; MT-4, IIIB; 5 days).
For `Cc1nn(C(C)c2nnc(Nc3ccn(Cc4ccccc4)n3)s2)c(C)c1Br` (centres unmarked), the EC50 was 60 ± 10 nM (viral replication, luciferase reporter; TZM-bl, NL4-3).
With `CN(C(=O)[C@H](Cc1ccccc1)NC(=O)CNC(=O)c1ccccc1)c1ccc(Cl)cc1` the EC50 was 880 ± 20 nM (viral replication; TZM-GFP, NL4-3).
For `COC(=O)[C@H](C)NP(=O)(OCCOCn1cnc2c(=O)[nH]c(N)nc21)Oc1cccc2ccccc12` (some centres unmarked), the EC50 was 140 ± 30 nM (viral replication, item: p24 antigen; LAI.04, human tonsil tissue ex vivo; 12 d).
The EC50 of `COc1ccc2c(NC3CCNCC3)nc(NCc3ccc(CNCCCNC4CCCCCC4)cc3)nc2c1` is reported as 45.4 ± 8.4 nM (viral replication, luciferase reporter; TZM-bl, IIIB).
`O=C(O)c1cc(Br)cc(Br)c1-n1c(-c2ccccc2)nc2c(Br)cc(Br)cc2c1=O` has an EC50 of greater than 125 µg/mL (cytopathic effect; MT-4, IIIB; 5 days).
For `O=c1[nH]cnc2c1ncn2[C@H]1CC[C@@H](CO)O1`, the EC50 was 4600 ± 2600 nM (viral cytopathicity; CEM, IIIB; 4 days).
The EC50 of `COc1cc(F)c(C(=O)c2cc(N)nc(Nc3ccc(C#N)cc3)n2)c(F)c1` is reported as 4.4 nM (cytoprotection; MT-4, IIIB; 5 days).
`O=C(O)c1ccccc1-n1c(-c2ccccc2)nc2c(Br)cc(Br)cc2c1=O` gave an EC50 of greater than 83.2 µg/mL (cytopathic effect; MT-4, IIIB; 5 days).
The EC50 of `CN1CCN(c2nc(NCc3ccc(CNCCCNC4CCCCC4)cc3)c3ncn(C)c3n2)CC1` is reported as 6.5 ± 0.2 nM (viral replication, luciferase reporter; TZM-bl, IIIB).
The EC50 of `Cc1cn([C@H]2C[C@H](N=[N+]=[N-])[C@@H](COC(=O)Cn3c(=O)ccn(CCCCCOc4ccc(Br)cc4)c3=O)O2)c(=O)[nH]c1=O` is reported as 610 ± 310 nM (viral replication, item: p24gag; MT4, Lai.04; 3 days).
With `Cc1cc(C=C2C(=O)C=CC2=O)cc(C)c1O` the EC50 was 15200 nM (cytopathic effect; C8166, IIIB; 3 d).
With `Cc1cc(C)cc(S(=O)(=O)c2c(C(=O)NCCCCCNS(=O)(=O)c3ccccc3)[nH]c3ccc(Cl)cc23)c1` the EC50 was 15 ± 7.7 nM (viral replication; MT-4, IIIB).
With `Nc1ccn([C@@H]2O[C@H](CO)[C@@H](O)[C@@H]2O)c(=O)n1` the EC50 was 4900 nM (viral replication, item: reverse transcriptase activity; human PBM cells, LAI; 144 h).
The EC50 of `Cc1cn(CC(=O)N[C@@H](Cc2ccccc2)C(=O)N(C)c2ccc(Cl)cc2)c(=O)[nH]c1=O` is reported as 1700 ± 200 nM (viral replication; TZM-GFP, NL4-3).
For `[N-]=[N+]=N[C@H]1C[C@H](n2ccc(=O)[nH]c2=O)O[C@@H]1CO`, the EC50 was 200 nM (viral replication; human PBM cells, LAI).
For `O=C(O)c1ccccc1-n1c(-c2ccccc2)nc2ccc(Br)cc2c1=O`, the EC50 was 74.8 µg/mL (cytopathic effect; MT-4, IIIB; 5 days).
The EC50 of `c1nc2c(NCc3ccc(CNCCCNC4CCCCC4)cn3)nc(N3CCNCC3)nc2[nH]1` is reported as 4.2 ± 0.3 nM (viral replication, luciferase reporter; TZM-bl, IIIB).
For `Cc1ccc(S(=O)(=O)NCCCCNC(=O)c2[nH]c3ccc(Cl)cc3c2S(=O)(=O)c2cc(C)cc(C)c2)cc1`, the EC50 was 32 ± 12 nM (viral replication; MT-4, IIIB).
`C=C(C)[C@@H]1CC[C@]2(NCCN3CCS(=O)(=O)CC3)CC[C@]3(C)[C@H](CC[C@@H]4[C@@]5(C)CC=C(C6=CC[C@@](CF)(C(=O)O)CC6)C(C)(C)[C@@H]5CC[C@]43C)[C@@H]12` gave an EC50 of 0.17 µg/mL (viral load; human, HIV-1 patients, plasma; 192 h).
`Cc1nc(CN)cc2c1[nH]c1ccccc12` has an EC50 of greater than 100000 nM (cytopathic effect; MT4, NL4.3; 5 days).
For `O=c1[nH]c(=O)n([C@H]2C[C@H](OP(=O)(O)OC[C@H]3O[C@H](O)[C@H](O)[C@@H](O)[C@@H]3O)[C@@H](CO)O2)cc1I`, the EC50 was greater than 100000 nM (viral replication, supernatant RT activity; human PBM cells, LAI; 6 days).
`Cc1cc(C)cc(S(=O)(=O)c2c(C(=O)NCCCCNS(=O)(=O)c3ccccc3F)[nH]c3ccc(Cl)cc23)c1` gave an EC50 of 9.1 ± 2.5 nM (viral replication; MT-4, IIIB).
The EC50 of `Cc1cc(Br)cc(C)c1Oc1cc(Nc2ccc(C#N)cc2)c(N)cc1[N+](=O)[O-]` is reported as 52 ± 5 nM (viral replication, p24 ELISA; MT2, IIIB wild type).
The EC50 of `Cc1cc(C)cc(S(=O)(=O)c2c(C(=O)NCCCNS(=O)(=O)c3ccc(C#N)cc3)[nH]c3ccc(Cl)cc23)c1` is reported as 31 ± 3.4 nM (viral replication; MT-4, IIIB).
For `CN(C(=O)[C@H](Cc1ccccc1)NC(=O)c1c[nH]c(=O)[nH]c1=O)c1ccccc1`, the EC50 was greater than 20000 nM (viral replication; TZM-GFP, NL4-3).
`Cc1cc(C)cc(S(=O)(=O)c2c(C(=O)NCCNS(=O)(=O)c3cccs3)[nH]c3ccc(Cl)cc23)c1` gave an EC50 of 100 ± 27 nM (viral replication; MT-4, IIIB).
With `COc1cc(NC(C)CCCN)c2ncccc2c1` (centres unmarked) the EC50 was greater than 100000 nM (cytopathic effect; MT4, NL4.3; 5 days).
`Nc1ncnc2c1ncn2CCOCP(=O)(O)O` gave an EC50 of 7400 ± 1700 nM (giant cell formation; CEM, IIIB; 96 h).
With `COc1ccc2nc(NCc3ccc(CNCCCNC4CCCCCC4)cc3)nc(NC3CCNCC3)c2c1` the EC50 was 42.6 ± 7 nM (viral replication, luciferase reporter; TZM-bl, IIIB).
The EC50 of `COc1nc(Nc2ccc(C#N)c(OCC=C(C)C)c2)nc(OCCCCOc2nc(Nc3ccc(C#N)c(OCC=C(C)C)c3)nc(OC)n2)n1` is reported as greater than 6000 nM (protection from viral cytopathicity, MTT; MT-2, IIIB).
`Nc1ncnc2c1ncn2[C@@H]1O[C@H](CO)[C@@H](O)[C@@H]1O` gave an EC50 of greater than 100000 nM (viral replication, item: reverse transcriptase activity; human PBM cells, LAI; 144 h).
With `C=C(C)[C@H]1CCc2c(c(C)cc(O)c(=O)c2O)C1` the EC50 was greater than 50000 nM (cytopathic effect; CEM-SS, RF).
`Cc1cn([C@H]2C[C@H](N=[N+]=[N-])[C@@H](COC(=O)Cn3c(=O)ccn(CCCCCCCCCCOc4ccc(Br)cc4)c3=O)O2)c(=O)[nH]c1=O` has an EC50 of 440 ± 290 nM (viral replication, item: p24gag; MT4, Lai.04; 3 days).
With `Cc1cc(C)cc(S(=O)(=O)c2c(C(=O)NCCCCNS(=O)(=O)c3ccc([N+](=O)[O-])cc3)[nH]c3ccc(Cl)cc23)c1` the EC50 was 28 ± 4.9 nM (viral replication; MT-4, IIIB).
`Cc1cc(O)c(=O)c(O)c2c1CC(C(C)(O)CO)CC2` (centres unmarked) gave an EC50 of greater than 50000 nM (cytopathic effect; CEM-SS, RF).
`Cc1cn([C@H]2C=C[C@@H](CO)O2)c(=O)[nH]c1=O` has an EC50 of 69 nM and 73 nM (viral replication, supernatant RT activity; human PBM cells, LAI; 6 days).

A few entries again:
With `Cc1cc(C=C2C(=O)C=CC2=O)cc(C)c1O` the EC50 was 15200 nM (cytopathic effect; C8166, IIIB; 3 d).
With `Cc1cc(C)cc(S(=O)(=O)c2c(C(=O)NCCCCCNS(=O)(=O)c3ccccc3)[nH]c3ccc(Cl)cc23)c1` the EC50 was 15 ± 7.7 nM (viral replication; MT-4, IIIB).
